Experimental data pooled from the literature.
Numbered parts are unrelated; each lists some results of a single study. Substitutions count along the parent as printed.

Sample 1
Target: CEBPD, bZIP domain (human)
Method: DHFR protein complementation
Medium: yeast
Setting: single substitutions, most at no-binding floor
Relative to: wild-type JUN-FOS pair
Direction: higher = stronger binding
Endpoint: binding fitness
Parent: JUN, bZIP domain (human); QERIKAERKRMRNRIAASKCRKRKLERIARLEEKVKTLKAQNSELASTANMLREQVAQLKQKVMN; partner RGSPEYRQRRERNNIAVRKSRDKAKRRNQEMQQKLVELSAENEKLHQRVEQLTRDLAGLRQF
Change = V56Q; value = -1.38 natural log
Change = A46S; value = -1.4 natural log
Change = L52D; value = -1.55 natural log
Change = R30C; value = -1.37 natural log
Change = E54W; value = -1.4 natural log
Change = M51Q; value = -1.32 natural log
Change = S43N; value = -1.24 natural log
Change = V56A; value = -1.48 natural log
Change = K34N; value = -1.36 natural log
Change = E44Y; value = -1.17 natural log
Change = L52M; value = -1.45 natural log
Change = N42C; value = -1.28 natural log
Change = L59G; value = -1.47 natural log
Change = E32Y; value = -1.35 natural log
Change = K36P; value = -1.51 natural log
Change = I28Q; value = -1.19 natural log
Change = T37D; value = -1.32 natural log

Sample 2
Target: ABI1, truncated, D143A, DHFR fusion (Arabidopsis thaliana)
Method: DHFR PCA, deep sequencing
Medium: yeast
Setting: methotrexate growth selection, single substitutions
With: (+)-ABA 2500 µM
Relative to: wild-type fitted maximum
Direction: higher = stronger binding
Endpoint: relative binding score
Parent: PYL1, truncated, DHFR fusion (Arabidopsis thaliana); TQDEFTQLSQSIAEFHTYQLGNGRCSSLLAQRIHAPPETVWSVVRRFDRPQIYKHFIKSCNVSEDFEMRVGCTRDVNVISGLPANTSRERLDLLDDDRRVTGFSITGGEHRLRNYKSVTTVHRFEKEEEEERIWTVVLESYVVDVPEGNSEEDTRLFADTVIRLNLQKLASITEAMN; partner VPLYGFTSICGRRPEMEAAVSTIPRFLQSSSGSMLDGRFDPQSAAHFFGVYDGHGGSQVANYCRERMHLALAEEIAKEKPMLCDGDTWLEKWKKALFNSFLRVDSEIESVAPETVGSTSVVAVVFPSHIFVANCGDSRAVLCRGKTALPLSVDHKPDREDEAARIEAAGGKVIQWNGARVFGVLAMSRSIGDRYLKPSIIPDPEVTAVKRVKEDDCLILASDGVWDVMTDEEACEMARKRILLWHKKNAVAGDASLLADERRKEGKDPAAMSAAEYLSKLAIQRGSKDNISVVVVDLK
Change = E67Y; value = 92.3%
Change = Q10M; value = 92.6%
Change = V70K; value = 84.6%
Change = A30Q; value = 98.9%
Change = T154N; value = 25.7%
Change = A84G; value = 90.5%
Change = H122D; value = 95.3%
Change = S80W; value = 78.5%
Change = S9P; value = 96.3%
Change = E125I; value = 108%
Change = S80K; value = 85%
Change = N85L; value = 95.3%
Change = M68G; value = 87.1%
Change = C72L; value = 93.6%
Change = G148R; value = 90.3%
Change = I57D; value = 7.96%
Change = E131R; value = 100%
Change = S9M; value = 95.1%
Change = L156E; value = 94.5%

Sample 3
Target: CCND1, cyclin fold, Cln2 fusion (human)
Method: yeast growth competition, sequencing
Medium: yeast
Setting: weak parent motif
Relative to: not given
Direction: higher = stronger binding
Endpoint: normalised enrichment score
Parent: SAMHD1 docking peptide (human); ASKSRVQLFKDDP; partner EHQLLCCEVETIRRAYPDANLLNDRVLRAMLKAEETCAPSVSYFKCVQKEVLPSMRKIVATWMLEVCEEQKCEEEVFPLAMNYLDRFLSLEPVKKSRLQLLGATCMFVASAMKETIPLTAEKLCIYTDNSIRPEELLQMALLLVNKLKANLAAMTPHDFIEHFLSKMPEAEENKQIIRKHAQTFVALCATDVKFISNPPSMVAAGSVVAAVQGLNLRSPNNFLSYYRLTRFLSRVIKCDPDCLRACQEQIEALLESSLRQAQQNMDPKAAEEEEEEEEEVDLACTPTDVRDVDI
Change = ASKSRVQLFVDDP [K10V]; value = 0.55
Change = ACKSRVQLFKDDP [S2C]; value = 0.527
Change = ASKPRVQLFKDDP [S4P]; value = 0.0768
Change = ASHSRVQLFKDDP [K3H]; value = 0.838
Change = ASKSRVQLFKRDP [D11R]; value = 0.689
Change = ASKSRVQLVKDDP [F9V]; value = 0.278
Change = ASKSRLQLFKDDP [V6L]; value = 0.149
Change = ASKSRKQLFKDDP [V6K]; value = 0.471
Change = ASKERVQLFKDDP [S4E]; value = -0.0235
Change = ASKSRVQLFKDEP [D12E]; value = 0.84
Change = ASPSRVQLFKDDP [K3P]; value = 1.28
Change = ASKSRDQLFKDDP [V6D]; value = 0.159
Change = ASKSRVQSFKDDP [L8S]; value = 0.106
Change = ASKSRVQLFKHDP [D11H]; value = 0.0108
Change = ASKSRVQLPKDDP [F9P]; value = 0.139
Change = ASRSRVQLFKDDP [K3R]; value = 0.523
Change = ASKSAVQLFKDDP [R5A]; value = 0.823
Change = ASKSRMQLFKDDP [V6M]; value = 0.193
Change = ASKSRVQLFKADP [D11A]; value = 0.391
Change = ASESRVQLFKDDP [K3E]; value = 1.03
Change = AMKSRVQLFKDDP [S2M]; value = 0.45

Further values, each from its own experiment
Method: cross-linking MS
PNN: PNN (Homo sapiens, UniProt Q9H307)
Molecule = EEF1G (Homo sapiens, UniProt P26641); partner = USP48 (Homo sapiens, UniProt Q86UV5); test system = cell fractions; conditions = with: DSSO; endpoint = cross-linked residues; value = K219 to K201
Molecule = SAP18 (Homo sapiens, UniProt O00422); partner = PNN; conditions = hits only; endpoint = interaction screen; value = cross-linked
Molecule = UQCRQ (Homo sapiens, UniProt O14949); partner = UQCRC2 (Homo sapiens, UniProt P22695); conditions = hits only; endpoint = interaction screen; value = cross-linked
Molecule = EIF4A3 (Homo sapiens, UniProt P38919); partner = PNN; conditions = hits only; endpoint = interaction screen; value = cross-linked

For quick reference, copied from above (sample 1):
Change = E54W; value = -1.4 natural log
Change = K36P; value = -1.51 natural log
Change = N42C; value = -1.28 natural log
Change = R30C; value = -1.37 natural log
Change = L59G; value = -1.47 natural log
Change = L52M; value = -1.45 natural log
Change = S43N; value = -1.24 natural log
Change = I28Q; value = -1.19 natural log
